Measured values gathered from unrelated publications.
A part holds a random share of what one study measured.

Set 1 — method: universal PBM; molecule type: double-stranded DNA, one strand shown; medium: in vitro; concentration: not given; direction: higher = stronger binding
Target: Sal-like protein 4, full length isoform B (SALL4, Homo sapiens, UniProt Q9UJQ4-2, residues 1-616)
Notes: 8-mer, flanks averaged, mean of replicates
Residues (chain): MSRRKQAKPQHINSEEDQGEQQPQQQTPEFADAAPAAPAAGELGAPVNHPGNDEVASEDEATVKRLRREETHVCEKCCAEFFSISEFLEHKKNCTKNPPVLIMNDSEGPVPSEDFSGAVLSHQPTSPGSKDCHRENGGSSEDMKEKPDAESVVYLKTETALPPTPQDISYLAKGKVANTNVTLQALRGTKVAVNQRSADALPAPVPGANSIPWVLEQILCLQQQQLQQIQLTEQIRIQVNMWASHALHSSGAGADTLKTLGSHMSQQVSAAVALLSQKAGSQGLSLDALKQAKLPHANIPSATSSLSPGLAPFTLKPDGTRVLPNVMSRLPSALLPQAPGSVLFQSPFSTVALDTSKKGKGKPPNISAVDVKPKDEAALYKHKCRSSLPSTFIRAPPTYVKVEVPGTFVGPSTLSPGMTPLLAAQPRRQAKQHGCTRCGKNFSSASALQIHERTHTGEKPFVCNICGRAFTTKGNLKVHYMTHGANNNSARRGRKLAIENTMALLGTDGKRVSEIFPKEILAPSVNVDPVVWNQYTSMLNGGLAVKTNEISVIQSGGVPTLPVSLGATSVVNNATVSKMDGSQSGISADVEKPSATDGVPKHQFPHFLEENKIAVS
| Sequence | E-score |
| --- | --- |
| GCCGCGGC | -0.226 |
| ATTTATCA | 0.291 |
| ACAGCGCA | -0.225 |
| CACAGATG | 0.0888 |
| GGTGAAAC | -0.115 |
| CGAACTAA | 0.0744 |
| CATTCAAC | 0.156 |
| GAATGGAC | -0.0209 |
| ACTCTCGC | -0.158 |
| AAGGATAG | 0.0877 |
| AGGGGAGG | -0.168 |
| AAACCAAG | 0.122 |
| ACAGACCG | -0.217 |
| AGCGTCCG | -0.266 |
| CTGCTAGA | -0.168 |
| AAGAAATC | 0.0753 |
| GCAGTAAC | -0.0681 |
| ATCTATCA | 0.233 |
| AACGACGC | -0.0561 |
| CCCAGTTA | -0.117 |
| ATCTATTG | 0.235 |
| ATAGTGAC | 0.167 |
| CGGGATGC | -0.303 |

Set 2 — method: RNA Bind-n-Seq; molecule type: RNA; medium: in vitro; concentration: 200 nM; notes: whole 134-nt RNA, ends assumed; added: 150 mM LiCl; baseline: input library; direction: higher = stronger binding; each molecule: 7-deaza-guanosine replaces G
Target: Fragile X messenger ribonucleoprotein 1, C-terminal low-complexity region (Fmr1, Mus musculus, UniProt P35922)
All sequences stand within: GGGAGUUCUACAGUCCGACGAUC … UGGAAUUCUCGGGUGUCAAGG
| Sequence | log2 enrichment |
| --- | --- |
| AGUCCUGUGCUACACAUCGUAUGUACCGAAUCGGCCCCCGGGGCCCCCGGGCCCCCGGAAAGUAUUAUGUUACGCCGUUCGGAUCUGCAC | -2.47 |
| UCCUGUGCUACACAUCGUAUGUACCGAAUCGGGGAAAAAGGAAAAAGGGGAAAAAGGGGAAAGUAUUAUGUUACGCCGUUCGGAUCUGCA | -0.545 |
| AAGUCCUGUGCUACACAUCGUAUGUACCGAAUCGGGGAAAAAGGGGUGGGGUGGGGAAAGUAUUAUGUUACGCCGUUCGGAUCUGCACUU | -1.05 |
| AAGUCCUGUGCUACACAUCGUAUGUACCGAAUCGGGGAGGGGAAAAAGGGGAGGGGAAAGUAUUAUGUUACGCCGUUCGGAUCUGCACUU | 0.703 |
| AAGUCCUGUGCUACACAUCGUAUGUACCGAAUCGGGAGGGUUUUUUUGGGAAAGGGAAAGUAUUAUGUUACGCCGUUCGGAUCUGCACUU | -0.545 |
| AAGUCCUGUGCUACACAUCGUAUGUACCGAAUCGGGGCCCCGGGCCCCGGCCCCGGAAAGUAUUAUGUUACGCCGUUCGGAUCUGCACUU | -3.2 |
| AAGUCCUGUGCUACACAUCGUAUGUACCGAAUCGGCCCCGGGCCCCGGGGCCCCGGGAAAGUAUUAUGUUACGCCGUUCGGAUCUGCACU | -2.5 |
| UCCUGUGCUACACAUCGUAUGUACCGAAUCGGGAAAAAAAGGGAAAGGGAAAAAAAGGGAAAGUAUUAUGUUACGCCGUUCGGAUCUGCA | 0.74 |
| UGGCCCUGGUGGCAUGCGGCGAGGAAGAGGUGGCCUCAUGGAUCGUGGUGGUCCCGGUGGAAUGUUCAGAGGUGGCCGUGGUGGAGACAG | -0.264 |
| UGGAAGUGGCGCUGGCGCCUGAAGAGUUGGAGCUGGAUCCUAUGGCCAUGACCCAGAAGUAUGAGGAGCAUGUGCGGGAGCAGCAGGCUC | -1.3 |
| UGUCCCAGGGAACGCCGGUGCAGAUGUGCUUCUUGUGGGCUCAGAGGCCUUCGUGCUGCUGGACGGGCAGGAGCUGACGCCUCGCUGGAC | -2.9 |

Set 3 — method: RNA Bind-n-Seq; molecule type: RNA; medium: in vitro; concentration: 365 nM; baseline: no-protein control; direction: higher = stronger binding
Target: RNA binding protein fox-1 homolog 2, RRM domain, GST-SBP tag (RBFOX2, Homo sapiens, UniProt O43251-10, residues 100-194)
Notes: natural RNA segment, single round, ends assumed
All sequences stand within: GGGAGUUCUACAGUCCGACGAUC … UGGAAUUCUCGGGUGCCAA
Residues (chain): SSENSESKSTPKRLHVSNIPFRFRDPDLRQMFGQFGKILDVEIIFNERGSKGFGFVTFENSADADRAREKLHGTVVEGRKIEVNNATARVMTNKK
| Sequence | RBNS enrichment (R) |
| --- | --- |
| CUUAGUGCUUUGAGGAUUUUAUUUUCUCCCUUACUACGCUUGCUUGACGUCACUCUCUCUCGACCUCCAAACAGCAGGACUCUUUCUCUGGGAAACCAUCCUUCCAAAAC | 0.309 |
| CAAAAUCAGGAUGUUUUUCACUGUCCAUUGCUUUGUGUUUUAAUAAACAAUUUGCAGUGACACUCUGUGUUGGGACUGAGUUCGAACUUGAUCUCAAAGCGCUGAAGUGA | 0.283 |
| AAGGAGGGUUGACUCAGAACCCAGAGACAAUACAAAACCCCUCACUUCCUCUGAGAGGGCCAAAUGCUGUGAGUCUGAAGUAUGUGCCUGGUGUGAAAUGAUCUAUGGCC | 0.545 |
| AUCACAAGACCUAGGGAGAGGAAGUCCCCAAAAUGCUUGGGACAUGACCCAUCCUGAGGCCAGAUACAUACUUUAAAAUUCAGAUAUUCACCGUAGCAGGUAGACAGAUG | 0.42 |
| AAAAUCCCUGGAUAUGACAUAAAAAGGAUUUUGGCUUCUUUUUUGAAGUAUUUAAAAUUAAUCACCUUAGCUCUACCAUAUACUAGAUCUGUGACCGCUACACAAAUUGU | 0.469 |
| AAAAAAAAGCAGAGUUUUUGUUUUUCAACCCUUUAUGUUUGUUUUGUUUUAUUCUUAAAUAAGCAAGCAAAACCUGCACAUUGGAUUCACGUGAGAUGAUAAUGAAAACU | 0.444 |
| CCCUGUCCCACCACUCUCAGAGAGGGUGUACCUGUCAAACUGGAUGGCCUACAUAGGUACUCCCCCCUACCCCUAGGAUGCAGAGAGACGGGAACACGCCGGAGGGUAGA | 0.6 |
| UGCACUUGCACUAGAGCAGCCGGUGCCCAUGCAGAGUGAACGUGGCUGAAUUAACUUUUCCAACAACCAAGUGGGUCAGCAAUUUGAUGCCCUUGAUAAAUAUCAACUUU | 0.33 |
| UCCUGACUGUUUAGUAAGAGCAUGCUUACACCCUACUGUGAAAAGGGGAGGGGAUGUGGUAAGCGGAAACAGAAGACAGGCAGCAGAGGCAUUAAAAAUGCAUACCAUGC | 0.957 |
| GUACUCAGUGAUAAAGUUAGCCAGCUCCAGAUAUGCAUAAAGAGUCUAAAGGUUUCUAAGUGUAUCUUGCAAGAGAAUCUCCACUCCAGCAAUCACAGCUCAAAUUGUGG | 0.666 |
| UGAUUCUGUACUCUUAACCUUUGGCUACUUCACAGACUCCAUUGGCAACACUGUUAUUGAAAAUCAUGUAAGAUUAAAGAGAGGCAUUUUCGUUUCUAUACAACUUCAUU | 0.318 |
| GUAAAUGUUUAUAUAAAUACCAAAUUGCAGCAUCCCCAAAAUGAAUAAAGCCUUUUUACUUGUGGGUGCAAUCGAUUUUUUUUCUUUCUCCUUUCUUUCAAGUGUCGUGA | 0.405 |

Set 4 — method: protein-binding microarray; molecule type: double-stranded DNA, one strand shown; medium: in vitro; concentration: 2200 nM top; notes: 60-bp whole probe; added: salmon DNA 0.4 mg/ml; baseline: random background probes; direction: higher = stronger binding; all sequences stand within: GCCTAGCAC … GTCTTGATTCGCTTGACGCTGCTG
Target: Interferon regulatory factor 7, full length, phosphomimetic (IRF7, Homo sapiens, UniProt Q92985, residues 1-503, S471D/S472D/S475D/S476D/S477D/S483D/S484D/S487D)
Construct (chain): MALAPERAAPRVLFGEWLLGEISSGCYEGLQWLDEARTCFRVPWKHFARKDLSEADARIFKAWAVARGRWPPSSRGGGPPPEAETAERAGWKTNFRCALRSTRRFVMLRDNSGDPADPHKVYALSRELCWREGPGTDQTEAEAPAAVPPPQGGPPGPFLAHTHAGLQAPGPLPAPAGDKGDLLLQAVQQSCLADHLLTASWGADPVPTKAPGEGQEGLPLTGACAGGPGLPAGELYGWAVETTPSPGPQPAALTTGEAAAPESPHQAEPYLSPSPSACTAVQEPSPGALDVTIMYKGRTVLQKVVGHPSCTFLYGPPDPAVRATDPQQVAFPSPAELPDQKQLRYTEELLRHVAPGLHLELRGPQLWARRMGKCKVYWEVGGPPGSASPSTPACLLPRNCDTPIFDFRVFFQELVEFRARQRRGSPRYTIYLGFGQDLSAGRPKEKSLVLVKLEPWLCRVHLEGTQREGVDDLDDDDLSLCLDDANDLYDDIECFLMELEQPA
| Sequence | fitted relative affinity [z-score] |
| --- | --- |
| TTAGTTTTCAGACTGGATTAGTGCTAG | 0.884 |
| CTAGTTGTGATTCTTTCGATGTGCTAG | 2.25 |
| GTTTTTTGGTTTCTGGTTTAGTGCTAG | 5.66 |
| GACGTACTGGACTTTCGGGACGTGCTA | 2.59 |
| AGAATCTTAGATATTAAACTGTGCTAG | -0.68 |
| TCATTTTCGTTTTTATTATTGTGCTAG | 12 |
| TCATCTAAGGATTTCAGACTGTGCTAG | -0.0693 |
| GACGGTATCCTTTTCCTGTCGTGCTAG | 2.26 |
| GACGGTATAGACACTGGGGACGTGCTA | -0.538 |
| TTAGATCTCAGTCTCCATTAGTGCTAG | 0.631 |
| TTAGGACTGCTTCGCCTTTAGTGCTAG | 0.265 |
| GACGAACTGGGGTTCCGAGACGTGCTA | -0.216 |
| TTTGGTTTCCTTTCCCTTTAGTGCTAG | 6.65 |
| TAGCTTCTCAATTAAAAAAAGTGCTAG | -0.509 |
| GACGGTCTCCTTATCCTGAGGTGCTAG | 0.447 |
| GACGATCTCAGAATCGAGACGTGCTAG | -0.196 |
| TTAGGTTACGGACTGGGTTAGTGCTAG | -0.0419 |
| TCACCATCCTGTATGGAACTGTGCTAG | 1.17 |
| TAAGGACTGGACTTTCGGTTAGTGCTA | 4.98 |
| TCATCTATCAAAAATACAACTGTGCTA | -0.065 |
| TTATGTTTCGACACTGGGTTAGTGCTA | 2.56 |
| GACGAACTGAGTTTCTAGACGTGCTAG | 0.559 |
| TTAGGTTTCGTGTATCGGTTAGTGCTA | 4.34 |
| TTAGATCTCTGTCTCGATTAGTGCTAG | 0.592 |
| TTAGATTTCAGACTGGGTTAGTGCTAG | 0.27 |

Some of these lines once more (set 1):
| Sequence | E-score |
| --- | --- |
| AAACCAAG | 0.122 |
| CCCAGTTA | -0.117 |
| ACAGACCG | -0.217 |
| AACGACGC | -0.0561 |
| ATAGTGAC | 0.167 |
| AAGAAATC | 0.0753 |
| GCAGTAAC | -0.0681 |
| CTGCTAGA | -0.168 |
| ATTTATCA | 0.291 |
